Published values gathered from unrelated publications.
Lines come from different studies, so protocols differ. Values joined by “and” are separate records of one study, mostly repeats; a detail may differ. ± gives the spread as reported.

SMILES | target or system | assay | test system | setting | scale | quantity | value
Cn1cnc2c1c(=O)n(CC(=O)Nc1c(Cl)cccc1Cl)c(=O)n2C | Vero | MTT |  | 62.5 µg/mL |  | cytotoxicity | 0.214%
Cn1cc(C2=C(c3ccc(Cl)cc3Cl)C(=O)NC2=O)c2ccccc21 | primary human cortical neurons | Western blot |  | 5 µM, 48 h, together with: HIV Tat 100 ng/mL and maraviroc 2.5 µM | baseline: Tat-treated cells, increase | NFL protein level | 2.27 fold
CCCCCCCCCCCCCCCC(NCc1cccc(C)c1)=C1C(=O)OC(CO)C1=O (stereo not shown) | G2-synchronized tsFT210 cells | flow cytometry |  | 5 µM, 4 h, 32 °C, release from G2 arrest |  | G2/M phase cells | 25.6%
COc1ccc(-n2nc(C(C)=O)s/c2=N\N=C(/C)c2ccc(NC(=O)c3ccc(C)cc3)cc2)cc1 | HepG2 |  |  | 0.078 µM |  | toxicity | 0.182%
Cc1cc(NC(=O)C2CCCN(S(=O)(=O)c3cccc4nonc34)C2)ccc1Br (stereo not shown) | LDR | silenced CMV-GFP reporter derepression, qHTS |  |  |  | efficacy | 63%
O=P1(C2CCCCC2)CCCCC1 | SW480 | trypan blue |  | IC50, 72 h | baseline: untreated | reduction of cell number | 45 to 53%
Nc1ncnc2c1ncn2[C@@H]1O[C@H](COP(=O)(O)OP(=O)(O)OP(=O)(O)O)[C@@H](O)[C@H]1O | PMA-differentiated Pam3CSK4-primed THP-1 GSDMD knockout | inducer, ELISA |  | concentration not given |  | IL-1beta release | 331 pg/mL and 359 pg/mL and 232 pg/mL
Cc1nc(N(Cc2ccccc2)c2ccc3c(c2)/C(=C/c2ccccc2)C(=O)N3Cc2ccccc2)c2ccccc2n1 (mixture of isomers) | LLC | mitochondrial membrane potential, JC-1 flow cytometry |  | 2 µM |  | depolarized cells | 17.6%
CSc1cc(Oc2ccnc3[nH]c(=O)cnc23)ccc1NC(=O)Nc1cc(C(C)(C)C)nn1-c1ccccc1 | patient-derived cell line clone A | RPPA, item: phosphorylated SAPK/JNK | human | 1 µM, 4 h | baseline: DMSO | phospho ratio | 0.64
c1ccc2[nH]ccc2c1 | HCT-8 | RNA-seq, item: DNAJB9 |  | concentration not given |  | mRNA level, LS mean | 29.1 counts per million
Nc1cccc2c1C(=O)N(C1CCC(=O)NC1=O)C2=O (stereo not shown) | MM1.S | XTT |  | 1.6 µM | baseline: untreated | viability | 25%
O=C1N=C(N2CCCCC2)S/C1=C\c1cc(Cl)ccc1O | NG108-cl | clomeleon fluorescence, item: intracellular chloride reduction |  | 5 h |  | EC50 | inactive
CCCCCCOC(=O)[C@]1(O)C[C@@H]2O[C@@]1(C)n1c3ccccc3c3c4c(c5c6ccccc6n2c5c31)C(=O)NC4 | SK-OV-3 | ATP |  | 0.1 µM, 4 days, 3D U-bottom low-attachment | baseline: untreated | relative cell number | 107%
C=CC1=C(C)c2cc3[n-]c(cc4nc(cc5[n-]c(cc1n2)c(C)c5C=C)C(C)=C4CCC(=O)O)c(CCC(=O)O)c3C.[Zn+2] | SH-SY5Y | RNA-seq, item: ITGA6 mRNA |  | 5 µM, 5 h | baseline: untreated cells | fold change | 1.88
O=C(/C=C/C=C/C=C/C1CCCCC1)NC1=C[C@@](O)(/C=C/C=C/C=C/C(=O)NC2=C(O)CCC2=O)[C@@H]2O[C@@H]2C1=O | hcc2279 | cell growth, inhibitor, CellTiter-Glo luminescence |  | 78 h | baseline: day 0 cell count | GI50 | 14.3 µM
C[N+](C)(C)CC(O)CC(=O)[O-] (stereo not shown) |  | binding, MIDAS equilibrium dialysis LC-MS | A2AR-BRIL thermostabilized | concentration not given | baseline: no-protein control | log2 fold change | -0.199
CC/C(=N\NC(=O)NCc1cccc(O)c1)c1ccc(O)c(C)c1O | SK-OV-3 | Western blot | 2D culture | 5 µM, 1 h, unit not given | baseline: β-actin | YAP protein level | 1.19 ± 0.23
COc1cc2ncnc(Nc3ccc(Oc4ccccc4)c(C)c3C)c2cc1OC.Cl | MeWo (NF1) | cell viability, resazurin |  | 1 µM, 72 h, together with: trametinib |  | average fractional effect | 10%
Cc1cc2nc3c(=O)[nH]c(=O)nc-3n(C[C@H](O)[C@H](O)[C@H](O)COP(=O)(O)OP(=O)(O)OC[C@H]3O[C@@H](n4cnc5c(N)ncnc54)[C@H](O)[C@@H]3O)c2cc1C |  | binding, MIDAS equilibrium dialysis LC-MS | A2AR-BRIL thermostabilized | concentration not given | baseline: no-protein control | log2 fold change | -0.277
CCn1cc(-c2cc(Cn3ccoc3=N)cc3c2CCN([C@@H](C)c2cc(OC)ccn2)C3=O)c(C(F)(F)F)n1 | HEC-251 | cell growth, inhibitor |  | 120 h |  | EC50 | > 30 µM

SMILES | target or system | assay | test system | setting | scale | quantity | value
COc1ccc(NC(=O)c2sc3nc(-c4ccc(OC)cc4)cc(C(F)(F)F)c3c2N)cc1 | LDR | silenced CMV-GFP reporter derepression, qHTS |  |  |  | efficacy | 100%
CCCCC1(CCCC)CN(c2ccccc2)c2cc(SC)c(OCC(=O)N[C@@H](C(=O)NCC(=O)O)c3ccccc3)cc2S(=O)(=O)C1 | differentiated Caco-2 | qPCR |  | 1 µM, compound pre-incubation, together with: 0.6 mM post-operative bile acid pools |  | FGF19 mRNA level | decreased
NCc1cc2c(cc1F)C(=O)N(C1CCC(=O)NC1=O)C2 (stereo not shown) | HCC cell lines | CellTiter-Glo |  | 50% viability drop, of 19 lines |  | number of sensitive cell lines | 13
CCCCS(=N)(=O)CCC(N)C(=O)O (stereo not shown) | OVCAR-5 | LC-ESI-MS/MS, item: glutathione |  | 100 µM, 12 h |  | cellular GSH concentration | 13.9 ± 0.5 µM
C/C=C/c1ccc(OCC(=O)OCC(=O)NC2CC2)c(OC)c1 | LDR | silenced CMV-GFP reporter derepression, qHTS |  |  |  | efficacy | 58%
CC(C)NCC(O)c1ccc(O)c(O)c1 (stereo not shown) | mouse ventricular cardiomyocytes |  |  | dose not given, 0.439 s |  | sarcomere length | 1.68 µm
COc1cccc(OC)c1-c1cc(C(=O)NC2(C(=O)O)C3CC4CC(C3)CC2C4)nn1-c1ccc(C(=O)N(C)CCCN(C)CCCN(C)C(=O)CN2CCN(CC(=O)[O-])CCN(CC(=O)[O-])CCN(CC(=O)[O-])CC2)cc1C(C)C.[177Lu+3] (stereo not shown) | HT-29 |  |  | 240 min, 4 h | baseline: added activity | internalized fraction | 7.15 ± 0.3%
O=S(=O)(NCCNC/C=C/c1ccc(Br)cc1)c1cccc2cnccc12 | Neuro2a | inhibitor, RT-qPCR |  | concentration not given, together with: BRP 100 µg/mL |  | Fos mRNA level | inhibited
Cn1cc(-n2cnc3c(NCc4nc5cc(Cl)c(Cl)cc5[nH]4)nc(N4CCOCC4)nc32)cn1 | MDA-MB-231 | cell viability, CellCounting-Lite |  | 666.7 nM, 37 °C | higher = more viable cells | luminescence signal | 10800 a.u. and 8690 a.u.
Cc1cc(Nc2ncc(Cl)c(Nc3ccccc3S(=O)(=O)C(C)C)n2)c(OC(C)C)cc1C1CCNCC1 | CLB-BAR | phosphoproteomics LC-MS/MS, item: KIAA1549 phosphorylation |  | 200 nM, 60 min | baseline: untreated | log2 fold change | -2.23
COc1cc(/C=C/C(=O)N2CCC=CC2=O)cc(OC)c1OC | MDA-MB-468 | qRT-PCR, item: Bcl-2 |  | 30 µM, 6 h | baseline: time zero | mRNA expression | 85.3 ± 5.7%
CCCCN1CCN(c2ccc3nc(-c4ccc5nc(-c6cc(OC)ccc6OC)[nH]c5c4)[nH]c3c2)CC1 | SR | SRB |  | 10 µM, 48 h |  | growth percent | 72.5%
Br.N=c1n(CC(=O)c2ccc([N+](=O)[O-])cc2)c2ccccc2n1Cc1ccccc1Cl | LDR | silenced CMV-GFP reporter derepression, qHTS |  |  |  | efficacy | 55%
CCCCc1nc(Cl)c(CO)n1Cc1ccc(-c2ccccc2-c2nn[nH]n2)cc1 | human PBMC | RNA-seq, item: FPR2 mRNA |  | 10 µg/mL, 24 h | baseline: untreated control | log2 fold change | 1.7
CCc1cnc(N2CCC(c3nc(COc4ccc(-n5cnnn5)cc4)cs3)CC2)nc1 | HEK293T | RNA-seq, item: CARS mRNA |  | 10 µM, 6 h | baseline: vehicle | log2 fold change | 0.384
CSCC[C@H](NC(=O)[C@H](Cc1ccc(OS(=O)(=O)O)cc1)NC(=O)[C@@H](N)CC(=O)O)C(=O)NCC(=O)N[C@@H](Cc1c[nH]c2ccccc12)C(=O)N[C@@H](CCSC)C(=O)N[C@@H](CC(=O)O)C(=O)N[C@@H](Cc1ccccc1)C(N)=O | HEK293T control virus | agonist, calcium mobilization |  | 10000 nM, no receptor expressed | higher = more calcium release | calcium response | 0.0894 a.u. and 0.0848 a.u.
CCc1ccc(NC(=O)Nc2c[nH]c3ccccc23)cc1 | RAW-ISG | RT-qPCR, item: IFNB1 |  | 10 µM, unit not given, together with: poly(I:C) | baseline: relative | mRNA level | 1.13
COc1cc2ncnc(Nc3ccc(Oc4ccccc4)cc3C)c2cc1OC.O=C(O)C(F)(F)F | MeWo (NF1) | cell viability, resazurin |  | 1 µM, 72 h, together with: trametinib 0 nM |  | average fractional effect | 14%
CC(=O)N[C@@H](CS)C(=O)O | HeLa | annexin V/PI flow cytometry |  | concentration not given, 48 h |  | early apoptotic cells | 2.8 ± 0.25%
CCNc1nc(Nc2ccc(F)c(Cl)c2)c2ccccc2n1 | Vero | MTT |  | 1000 µg/mL |  | cytotoxicity | 97.4%

A few entries again:
SMILES | target or system | assay | test system | setting | scale | quantity | value
C[N+](C)(C)CC(O)CC(=O)[O-] (stereo not shown) |  | binding, MIDAS equilibrium dialysis LC-MS | A2AR-BRIL thermostabilized | concentration not given | baseline: no-protein control | log2 fold change | -0.199
Nc1cccc2c1C(=O)N(C1CCC(=O)NC1=O)C2=O (stereo not shown) | MM1.S | XTT |  | 1.6 µM | baseline: untreated | viability | 25%
CCCCCCCCCCCCCCCC(NCc1cccc(C)c1)=C1C(=O)OC(CO)C1=O (stereo not shown) | G2-synchronized tsFT210 cells | flow cytometry |  | 5 µM, 4 h, 32 °C, release from G2 arrest |  | G2/M phase cells | 25.6%
